Experimental data collected from several papers.
Every numbered part comes from another study and shows a few of its results, in no order.
Chain of UniProt Q6P2M8 (whole entry, looked up): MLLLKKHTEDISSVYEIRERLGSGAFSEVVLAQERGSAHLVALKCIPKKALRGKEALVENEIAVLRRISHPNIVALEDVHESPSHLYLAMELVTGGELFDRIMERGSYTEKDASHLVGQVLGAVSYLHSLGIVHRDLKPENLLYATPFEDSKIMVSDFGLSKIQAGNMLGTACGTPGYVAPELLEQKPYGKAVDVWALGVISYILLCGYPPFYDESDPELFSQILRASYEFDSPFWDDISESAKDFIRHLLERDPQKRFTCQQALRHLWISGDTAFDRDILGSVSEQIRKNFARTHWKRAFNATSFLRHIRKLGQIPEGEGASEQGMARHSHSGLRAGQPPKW
Chain of UniProt Q99755 (whole entry, looked up): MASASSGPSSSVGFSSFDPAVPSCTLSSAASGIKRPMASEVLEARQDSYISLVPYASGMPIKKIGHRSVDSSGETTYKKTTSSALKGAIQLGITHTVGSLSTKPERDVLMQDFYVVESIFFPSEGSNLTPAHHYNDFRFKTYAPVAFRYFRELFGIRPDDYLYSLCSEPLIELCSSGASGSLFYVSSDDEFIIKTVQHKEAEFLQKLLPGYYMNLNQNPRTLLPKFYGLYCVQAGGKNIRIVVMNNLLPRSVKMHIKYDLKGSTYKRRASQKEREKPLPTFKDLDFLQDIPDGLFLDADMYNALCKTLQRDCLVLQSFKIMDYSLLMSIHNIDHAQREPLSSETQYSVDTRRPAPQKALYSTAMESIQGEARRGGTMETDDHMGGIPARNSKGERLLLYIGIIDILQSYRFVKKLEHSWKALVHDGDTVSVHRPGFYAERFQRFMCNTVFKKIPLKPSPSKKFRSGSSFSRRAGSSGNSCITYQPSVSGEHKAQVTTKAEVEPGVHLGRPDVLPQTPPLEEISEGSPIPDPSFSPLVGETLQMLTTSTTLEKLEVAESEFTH
Chain of UniProt P54753 (whole entry, looked up): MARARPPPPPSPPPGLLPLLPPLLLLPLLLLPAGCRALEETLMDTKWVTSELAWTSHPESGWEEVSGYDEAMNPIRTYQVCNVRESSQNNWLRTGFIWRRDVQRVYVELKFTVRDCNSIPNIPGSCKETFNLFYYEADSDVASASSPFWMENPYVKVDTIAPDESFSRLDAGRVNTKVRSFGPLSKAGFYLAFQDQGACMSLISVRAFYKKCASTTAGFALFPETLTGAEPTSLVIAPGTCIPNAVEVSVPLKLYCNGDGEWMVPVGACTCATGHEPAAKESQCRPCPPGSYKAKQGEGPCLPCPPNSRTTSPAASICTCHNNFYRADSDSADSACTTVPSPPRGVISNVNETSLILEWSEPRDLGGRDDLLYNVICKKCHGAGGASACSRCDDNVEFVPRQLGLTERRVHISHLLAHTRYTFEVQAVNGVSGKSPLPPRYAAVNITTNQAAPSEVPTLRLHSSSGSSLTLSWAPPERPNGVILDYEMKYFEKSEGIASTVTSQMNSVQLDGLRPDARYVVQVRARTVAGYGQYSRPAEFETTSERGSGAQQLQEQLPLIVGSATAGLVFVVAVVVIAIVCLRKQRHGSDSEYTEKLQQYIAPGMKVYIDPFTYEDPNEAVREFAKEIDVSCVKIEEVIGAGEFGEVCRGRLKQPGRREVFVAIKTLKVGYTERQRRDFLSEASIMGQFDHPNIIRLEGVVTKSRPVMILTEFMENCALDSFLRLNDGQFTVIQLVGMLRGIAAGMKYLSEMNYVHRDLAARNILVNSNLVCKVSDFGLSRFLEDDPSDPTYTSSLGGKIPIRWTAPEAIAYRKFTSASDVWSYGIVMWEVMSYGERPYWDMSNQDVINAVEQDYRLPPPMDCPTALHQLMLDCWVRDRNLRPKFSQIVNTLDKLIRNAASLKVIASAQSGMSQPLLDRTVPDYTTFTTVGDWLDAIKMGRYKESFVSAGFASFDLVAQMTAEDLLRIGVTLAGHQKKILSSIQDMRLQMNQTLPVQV
Chain of UniProt P27361 (whole entry, looked up): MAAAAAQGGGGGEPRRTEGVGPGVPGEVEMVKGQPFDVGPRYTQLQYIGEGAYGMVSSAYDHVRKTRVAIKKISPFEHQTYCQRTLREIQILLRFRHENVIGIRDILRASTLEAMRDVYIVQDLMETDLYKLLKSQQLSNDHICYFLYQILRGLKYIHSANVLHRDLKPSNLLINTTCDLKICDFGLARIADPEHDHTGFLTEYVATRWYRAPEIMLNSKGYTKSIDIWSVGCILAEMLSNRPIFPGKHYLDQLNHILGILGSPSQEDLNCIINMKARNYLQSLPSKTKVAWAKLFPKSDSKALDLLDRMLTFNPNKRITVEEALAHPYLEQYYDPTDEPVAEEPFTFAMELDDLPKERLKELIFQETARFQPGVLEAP
Chain of UniProt O43353 (whole entry, looked up): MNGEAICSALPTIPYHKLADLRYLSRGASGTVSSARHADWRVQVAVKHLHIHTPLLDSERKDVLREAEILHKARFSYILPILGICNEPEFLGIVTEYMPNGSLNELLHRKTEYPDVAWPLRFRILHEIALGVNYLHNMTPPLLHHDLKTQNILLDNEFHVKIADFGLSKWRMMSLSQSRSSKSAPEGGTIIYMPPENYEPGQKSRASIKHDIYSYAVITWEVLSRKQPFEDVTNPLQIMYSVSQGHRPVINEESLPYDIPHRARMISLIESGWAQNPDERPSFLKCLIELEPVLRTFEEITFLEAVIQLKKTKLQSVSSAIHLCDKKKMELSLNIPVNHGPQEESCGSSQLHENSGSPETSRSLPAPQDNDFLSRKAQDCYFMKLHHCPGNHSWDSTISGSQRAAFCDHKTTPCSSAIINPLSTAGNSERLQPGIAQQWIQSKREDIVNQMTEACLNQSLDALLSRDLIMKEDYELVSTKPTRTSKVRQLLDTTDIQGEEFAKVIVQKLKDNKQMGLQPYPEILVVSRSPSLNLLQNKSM
Chain of UniProt P78368 (whole entry, looked up): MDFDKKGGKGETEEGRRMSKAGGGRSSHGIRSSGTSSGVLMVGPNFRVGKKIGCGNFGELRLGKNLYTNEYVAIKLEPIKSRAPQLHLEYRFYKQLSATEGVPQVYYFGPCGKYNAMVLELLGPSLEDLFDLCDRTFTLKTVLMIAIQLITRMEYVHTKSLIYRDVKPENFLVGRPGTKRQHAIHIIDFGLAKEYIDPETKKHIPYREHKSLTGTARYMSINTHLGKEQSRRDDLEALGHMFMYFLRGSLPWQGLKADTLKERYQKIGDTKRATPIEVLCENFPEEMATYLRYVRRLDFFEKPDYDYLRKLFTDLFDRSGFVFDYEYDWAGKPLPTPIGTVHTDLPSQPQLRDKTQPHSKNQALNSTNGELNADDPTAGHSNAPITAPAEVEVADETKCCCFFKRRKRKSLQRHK
Chain of UniProt Q04912 (whole entry, looked up): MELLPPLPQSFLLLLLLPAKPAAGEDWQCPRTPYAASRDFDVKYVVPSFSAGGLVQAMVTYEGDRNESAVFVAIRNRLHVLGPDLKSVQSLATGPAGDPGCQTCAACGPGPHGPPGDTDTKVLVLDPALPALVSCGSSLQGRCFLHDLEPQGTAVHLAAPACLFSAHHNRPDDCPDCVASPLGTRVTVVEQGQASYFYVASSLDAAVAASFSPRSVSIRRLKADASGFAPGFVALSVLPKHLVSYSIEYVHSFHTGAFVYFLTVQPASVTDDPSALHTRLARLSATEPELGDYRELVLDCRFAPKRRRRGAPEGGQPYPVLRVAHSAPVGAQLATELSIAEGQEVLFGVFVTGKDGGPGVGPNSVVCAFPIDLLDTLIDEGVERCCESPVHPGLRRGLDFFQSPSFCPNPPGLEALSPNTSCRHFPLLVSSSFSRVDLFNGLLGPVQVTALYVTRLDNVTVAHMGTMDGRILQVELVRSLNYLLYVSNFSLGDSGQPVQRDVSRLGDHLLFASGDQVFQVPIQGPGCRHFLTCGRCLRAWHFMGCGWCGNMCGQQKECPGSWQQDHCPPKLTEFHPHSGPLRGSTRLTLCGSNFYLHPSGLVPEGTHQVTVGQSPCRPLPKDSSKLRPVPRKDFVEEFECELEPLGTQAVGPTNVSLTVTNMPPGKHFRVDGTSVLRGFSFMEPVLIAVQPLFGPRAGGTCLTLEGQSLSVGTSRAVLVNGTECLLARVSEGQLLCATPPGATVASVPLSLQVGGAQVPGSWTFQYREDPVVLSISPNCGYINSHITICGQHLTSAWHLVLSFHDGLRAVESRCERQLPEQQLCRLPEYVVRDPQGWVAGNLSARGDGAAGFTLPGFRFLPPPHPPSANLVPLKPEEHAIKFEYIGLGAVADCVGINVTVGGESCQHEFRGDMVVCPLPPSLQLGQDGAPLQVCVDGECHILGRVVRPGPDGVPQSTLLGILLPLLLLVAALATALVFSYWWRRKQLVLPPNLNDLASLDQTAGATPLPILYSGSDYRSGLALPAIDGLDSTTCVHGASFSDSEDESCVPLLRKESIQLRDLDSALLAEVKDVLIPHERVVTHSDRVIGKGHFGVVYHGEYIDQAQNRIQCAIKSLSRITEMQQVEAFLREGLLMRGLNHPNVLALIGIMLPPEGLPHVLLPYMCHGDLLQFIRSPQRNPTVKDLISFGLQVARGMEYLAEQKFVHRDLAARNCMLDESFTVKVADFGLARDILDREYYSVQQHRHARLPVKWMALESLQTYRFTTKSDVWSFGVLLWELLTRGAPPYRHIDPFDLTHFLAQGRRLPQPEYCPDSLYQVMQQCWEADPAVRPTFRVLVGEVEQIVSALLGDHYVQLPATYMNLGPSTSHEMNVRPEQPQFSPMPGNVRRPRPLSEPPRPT

Sample 1
Target: Sal-like protein 4, full length isoform B (SALL4, Homo sapiens, UniProt Q9UJQ4-2, residues 1-616)
Technique: universal PBM
Form: double-stranded DNA, one strand shown
Matrix: in vitro
Concentration: not given
Notes: 8-mer, flanks averaged, mean of replicates
Direction: higher = stronger binding
Target sequence (chain): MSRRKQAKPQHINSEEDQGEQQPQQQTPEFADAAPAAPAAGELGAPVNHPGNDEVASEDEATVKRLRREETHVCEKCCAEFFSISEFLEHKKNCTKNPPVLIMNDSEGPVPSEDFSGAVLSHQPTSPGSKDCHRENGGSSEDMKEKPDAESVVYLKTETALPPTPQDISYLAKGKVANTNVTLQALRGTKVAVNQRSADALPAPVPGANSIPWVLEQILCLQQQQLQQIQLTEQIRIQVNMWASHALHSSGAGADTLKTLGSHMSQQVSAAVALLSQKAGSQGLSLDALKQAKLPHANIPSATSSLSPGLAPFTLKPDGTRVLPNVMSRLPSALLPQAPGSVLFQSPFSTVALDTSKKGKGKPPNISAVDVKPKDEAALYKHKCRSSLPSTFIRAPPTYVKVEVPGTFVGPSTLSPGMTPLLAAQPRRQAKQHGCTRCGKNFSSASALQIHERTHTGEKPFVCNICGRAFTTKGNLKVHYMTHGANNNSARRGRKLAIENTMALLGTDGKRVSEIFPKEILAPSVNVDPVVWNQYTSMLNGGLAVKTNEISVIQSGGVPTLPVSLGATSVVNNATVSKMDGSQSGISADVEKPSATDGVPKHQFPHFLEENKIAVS
Sequence	E-score
CGCTGATA	0.0659
CGGGTCAC	-0.35
GTGGCAGA	-0.235
ATTAGAGG	-0.0403
ATTCACTC	0.126
AGTTCAAA	0.0478
TCAATGAA	0.0536
CCGAGCAG	-0.264

Sample 2
SMILES: c1ccc2c(-c3ccncc3)c[nH]c2c1
Observed: enzyme activity
Action: inhibitor
Concentration: 0.5 µM
Relative to: control
target	remaining activity [%]
Casein kinase I isoform gamma-3 (CSNK1G3, Homo sapiens, UniProt Q9Y6M4)	108
Serine/threonine-protein kinase ULK2 (ULK2, Homo sapiens, UniProt Q8IYT8)	106
Mitogen-activated protein kinase kinase kinase 14 (MAP3K14, Homo sapiens, UniProt Q99558)	112
Serine/threonine-protein kinase A-Raf (ARAF, Homo sapiens, UniProt P10398)	97.7
Tyrosine-protein kinase ABL2 (ABL2, Homo sapiens, UniProt P42684)	91.9
Fibroblast growth factor receptor 3 (FGFR3, Homo sapiens, UniProt P22607)	98.9
Fibroblast growth factor receptor 1 (FGFR1, Homo sapiens, UniProt P11362)	92.7
Mitogen-activated protein kinase 3 (MAPK3, Homo sapiens, UniProt P27361)	98.9
Macrophage-stimulating protein receptor (MST1R, Homo sapiens, UniProt Q04912)	98.9
Serine/threonine-protein kinase Nek6 (NEK6, Homo sapiens, UniProt Q9HC98)	93.4
Tyrosine-protein kinase Lck (LCK, Homo sapiens, UniProt P06239)	102
Casein kinase I isoform gamma-2 (CSNK1G2, Homo sapiens, UniProt P78368)	95
Activin receptor type-1B (ACVR1B, Homo sapiens, UniProt P36896)	98.8
Wee1-like protein kinase (WEE1, Homo sapiens, UniProt P30291)	89.3

Sample 3
Target: RING finger protein unkempt homolog, zinc fingers 1-6, GST-SBP tag (UNK, Homo sapiens, UniProt Q9C0B0, residues 30-357)
Chain of UniProt Q9C0B0 (30-357, looked up): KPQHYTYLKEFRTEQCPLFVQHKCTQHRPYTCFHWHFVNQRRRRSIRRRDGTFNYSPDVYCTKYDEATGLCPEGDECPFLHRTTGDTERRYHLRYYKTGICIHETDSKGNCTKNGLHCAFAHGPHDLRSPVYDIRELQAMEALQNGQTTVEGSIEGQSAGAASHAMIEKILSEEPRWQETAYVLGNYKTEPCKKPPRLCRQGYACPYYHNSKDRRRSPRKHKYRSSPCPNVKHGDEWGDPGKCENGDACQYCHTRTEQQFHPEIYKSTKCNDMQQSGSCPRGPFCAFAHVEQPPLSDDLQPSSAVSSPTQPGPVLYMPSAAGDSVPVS
Technique: RNA Bind-n-Seq
Form: RNA
Matrix: in vitro
Concentration: not given
Notes: RNA with constant flanks, ends assumed
Relative to: input RNA pool
Direction: higher = stronger binding
Sequence	bound/input enrichment
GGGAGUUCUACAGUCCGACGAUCAUAUGCCUGUGGCUGCUGGACACAUACCCAUAUAACCCCCCUAUCUGUUUUGUUAAGCCUACCCGUUCAAUGACUAUUAAAACAGGAAAGCAUGUGGAUGCAAAUGGGAAAAUCUACCUACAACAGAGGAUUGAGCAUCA	0.17 ratio
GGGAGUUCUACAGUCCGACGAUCUGCAUUAAUCCACCCUUGUUUGAAAUCCAUCAAGUCUUGUUGAGUCCAACCCAACAUCAUGCCGCACUUAUCGGAAGUAAAGGACUUAUGGCAUUAGAAUUACCUCAGAGGUGGGGGAAGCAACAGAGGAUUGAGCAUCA	0.363 ratio
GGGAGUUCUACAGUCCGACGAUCUCCGUUUUGGAAGAGUUGCAGAAAGACCUAGAAGAGGUCAAAGUAUUGCUGGAAAAGUCCACCCGGAAAAGACUACGUGAUACUCUUACAAGUGAAAAGUCCAAGAUUGAGACGGAACUCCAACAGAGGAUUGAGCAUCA	0.363 ratio
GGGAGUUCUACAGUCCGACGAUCUUUGGUGGUCAAAGUAAAUGGGUGUAGGAUGCUACCAGCCUCAGGAGAGGCUUCACCAUGUUCCGCACCGUUGUCUUCACAAGAAAGAAUUACCCAGUCCAAGAUGUCAUUAGUGCCAAGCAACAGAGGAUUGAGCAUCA	0.229 ratio
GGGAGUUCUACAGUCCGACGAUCCCUUGUUCACUGGAUUGUCUGGGGUGACUUGGGCUCAUAUCCACAAUAUUUGGUAUACGGCCGCCGGUUGGUGGGGGUGGGGGUGGGGAGCUAGGAUAUAGGGCAGGGAUACAUACAGUUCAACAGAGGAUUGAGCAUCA	13.9 ratio
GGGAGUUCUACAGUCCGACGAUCCACUCCCAAGGCGUCUCCUUUAGUUAAAUGGUUUCCCCAAGGUCACCUUUUUGUAAUCGCCACCGUUUGGGCUACAGGAUGAGACACUAUCUCCACAAACAAGGAAGCCAAUACUCUUAACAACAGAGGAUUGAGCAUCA	0.325 ratio
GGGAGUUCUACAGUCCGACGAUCUUCUAUAACACUGGUUGAGAAAGUUCAGAUGAUCGCUGUAAUCCUAGGAUCCCUGUUCUUAACCGCGAGUGUGACUUGGCUCCUCUGGUCAGCCUUCAGCCCCUAUGCAGUGUGGCAGAGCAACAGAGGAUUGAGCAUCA	0.144 ratio
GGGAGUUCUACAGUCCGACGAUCUUCUCUUCUUCCGUGGUAGGAAGCCUCCCCAUGUACUCAUGCCUCGAGCUGUUUCUAAGCCCGCUGACUGCUGCACUGCUGUGAGCAGUAUCUUAACCCUCCUCUUUGCCAGGGGAGAAUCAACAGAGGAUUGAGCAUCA	0.321 ratio

Sample 4
Compound: COc1ccc2c(O[C@@H]3C[C@H]4C(=O)N[C@]5(C(=O)O)CC5/C=C\CCCCC[C@H](NC(=O)OC5CCCC5)C(=O)N4C3)cc(-c3csc(NC(=O)C(C)C)n3)nc2c1C (stereo partly drawn)
Observed: cell-free assay
Technique: competition with immobilised ligand
Concentration: 1 µM
target	remaining binding [%]
Serine/threonine-protein kinase B-raf (BRAF, Homo sapiens, UniProt P15056, V600E)	77
Cyclin-dependent kinase 7 (CDK7, Homo sapiens, UniProt P50613)	62
Calcium/calmodulin-dependent protein kinase type 1B (PNCK, Homo sapiens, UniProt Q6P2M8)	88
Receptor-interacting serine/threonine-protein kinase 2 (RIPK2, Homo sapiens, UniProt O43353)	100
Casein kinase II subunit alpha (CSNK2A1, Homo sapiens, UniProt P68400)	81
Mitogen-activated protein kinase kinase kinase 7 (MAP3K7, Homo sapiens, UniProt O43318)	67
Phosphatidylinositol 4-phosphate 5-kinase type-1 alpha (PIP5K1A, Homo sapiens, UniProt Q99755)	98
Serine/threonine-protein kinase pim-1 (PIM1, Homo sapiens, UniProt P11309)	97
Phosphatidylinositol 4,5-bisphosphate 3-kinase catalytic subunit alpha isoform (PIK3CA, Homo sapiens, UniProt P42336, E545K)	68
Death-associated protein kinase 2 (DAPK2, Homo sapiens, UniProt Q9UIK4)	100
Megakaryocyte-associated tyrosine-protein kinase (MATK, Homo sapiens, UniProt P42679)	50
Mitotic checkpoint serine/threonine-protein kinase BUB1 (BUB1, Homo sapiens, UniProt O43683)	96
Ephrin type-B receptor 3 (EPHB3, Homo sapiens, UniProt P54753)	100
Serine/threonine-protein kinase 17B (STK17B, Homo sapiens, UniProt O94768)	88
Death-associated protein kinase 1 (DAPK1, Homo sapiens, UniProt P53355)	100

A few entries again (sample 1):
Sequence	E-score
ATTAGAGG	-0.0403
ATTCACTC	0.126
AGTTCAAA	0.0478
TCAATGAA	0.0536
